Experimental data of several laboratories.
Protocols differ between the studies behind these lines. “And” joins repeats or separate records; there may be more than shown. ± gives the spread as reported.
SPT15 full length assumed: SPT15 full length assumed (Saccharomyces cerevisiae, UniProt P13393)
Sequence of UniProt P13393 (whole entry, looked up): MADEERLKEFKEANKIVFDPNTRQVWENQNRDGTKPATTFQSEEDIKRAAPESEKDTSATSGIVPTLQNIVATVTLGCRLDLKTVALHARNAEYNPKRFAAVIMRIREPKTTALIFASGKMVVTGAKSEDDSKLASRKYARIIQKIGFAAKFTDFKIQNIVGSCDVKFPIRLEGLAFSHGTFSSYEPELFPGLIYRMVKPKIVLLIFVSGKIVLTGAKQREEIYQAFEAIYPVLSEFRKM
U2AF2: U2AF2 148-342 (Homo sapiens, UniProt P26368)
Sequence of UniProt P26368 (whole entry, looked up): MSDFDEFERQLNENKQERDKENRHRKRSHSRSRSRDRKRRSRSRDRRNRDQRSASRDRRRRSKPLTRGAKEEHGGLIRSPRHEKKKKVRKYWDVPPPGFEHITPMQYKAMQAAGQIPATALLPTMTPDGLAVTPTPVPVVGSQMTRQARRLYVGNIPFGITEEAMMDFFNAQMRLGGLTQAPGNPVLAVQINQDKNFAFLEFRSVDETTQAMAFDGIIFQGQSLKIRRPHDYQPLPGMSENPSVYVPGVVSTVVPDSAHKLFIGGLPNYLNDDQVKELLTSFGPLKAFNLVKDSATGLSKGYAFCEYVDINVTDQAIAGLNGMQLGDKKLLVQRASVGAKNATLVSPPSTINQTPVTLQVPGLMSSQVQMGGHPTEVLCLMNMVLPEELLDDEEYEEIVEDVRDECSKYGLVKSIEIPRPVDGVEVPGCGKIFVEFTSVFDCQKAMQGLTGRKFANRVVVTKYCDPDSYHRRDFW
B1: human IGBP1; sequence looked up; chain AAEDELQLPRLPELFETGRQLLDEVEVATEPAGSRIVQEKVFKGLDLLEKAAEMLSQLDLFSRNEDLEEIASTDLKYLLVPAFQGALTMKQVNPSKRLDHLQRAREHFINYLTQCHCYHVAEFELPKTMNNSAENHTANSSMAYPSLVAMASQRQAKIQRYKQKKELEHRLSAMKSAVESGQADDERVREYYLLHLQRWIDISLEEIESIDQEIKILRERDSSREASTSNSSRQERPPVKPFILTRNMAQAKVFGAGYPSLPTMTVSDWYEQHRKYGALPDQGIAKAAPEEFRKAAQQQEEQEEKEEEDDEQTLHRAREWDDWKDTHPRGYGNRQNMG
B2: human septin-7; sequence looked up; chain SVSARSAAAEERSVNSSTMVAQQKNLEGYVGFANLPNQVYRKSVKRGFEFTLMVVGESGLGKSTLINSLFLTDLYSPEYPGPSHRIKKTVQVEQSKVLIKEGGVQLLLTIVDTPGFGDAVDNSNCWQPVIDYIDSKFEDYLNAESRVNRRQMPDNRVQCCLYFIAPSGHGLKPLDIEFMKRLHEKVNIIPLIAKADTLTPEECQQFKKQIMKEIQEHKIKIYEFPETDDEEENKLVKKIKDRLPLAVVGSNTIIEVNGKRVRGRQYPWGVAEVENGEHCDFTILRNMLIRTHMQDLKDVTNNVHYENYRSRKLAAVTYNGVDNNKNKGQLTKSPLAQMEEERREHVAKMKKMEMEMEQVFEMKVKEKVQKLKDSEAELQRRHEQMKKNLEAQHKELEEKRRQFEDEKANWEAQQRILEQQNSSRTLEKNKKKGKIF
B3: human archaemetzincin-2; sequence looked up; chain MQIIRHSEQTLKTALISKNPVLVSQYEKLNAGEQRLMNEAFQPASDLFGPITLHSPSDWITSHPEAPQDFEQFFSDPYRKTPSPNKRSIYIQSIGSLGNTRIISEEYIKWLTGYCKAYFYGLRVKLLEPVPVSVTRCSFRVNENTHNLQIHAGDILKFLKKKKPEDAFCVVGITMIDLYPRDSWNFVFGQASLTDGVGIFSFARYGSDFYSMHYKGKVKKLKKTSSSDYSIFDNYYIPEITSVLLLRSCKTLTHEIGHIFGLRHCQWLACLMQGSNHLEEADRRPLNLCPICLHKLQCAVGFSIVERYKALVRWIDDESSDTPGATPEHSHEDNGNLPKPVEAFKEWKEWIIKCLAVLQK
B4: human TGM1; sequence looked up; chain MMDGPRSDVGRWGGNPLQPPTTPSPEPEPEPDGRSRRGGGRSFWARCCGCCSCRNAADDDWGPEPSDSRGRGSSSGTRRPGSRGSDSRRPVSRGSGVNAAGDGTIREGMLVVNGVDLLSSRSDQNRREHHTDEYEYDELIVRRGQPFHMLLLLSRTYESSDRITLELLIGNNPEVGKGTHVIIPVGKGGSGGWKAQVVKASGQNLNLRVHTSPNAIIGKFQFTVRTQSDAGEFQLPFDPRNEIYILFNPWCPEDIVYVDHEDWRQEYVLNESGRIYYGTEAQIGERTWNYGQFDHGVLDACLYILDRRGMPYGGRGDPVNVSRVISAMVNSLDDNGVLIGNWSGDYSRGTNPSAWVGSVEILLSYLRTGYSVPYGQCWVFAGVTTTVLRCLGLATRTVTNFNSAHDTDTSLTMDIYFDENMKPLEHLNHDSVWNFHVWNDCWMKRPDLPSGFDGWQVVDATPQETSSGIFCCGPCSVESIKNGLVYMKYDTPFIFAEVNSDKVYWQRQDDGSFKIVYVEEKAIGTLIVTKAISSNMREDITYLYKHPEGSDAERKAVETAAAHGSKPNVYANRGSAEDVAMQVEAQDAVMGQDLMVSVMLINHSSSRRTVKLHLYLSVTFYTGVSGTIFKETKKEVELAPGASDRVTMPVAYKEYRPHLVDQGAMLLNVSGHVKESGQVLAKQHTFRLRTPDLSLTLLGAAVVGQECEVQIVFKNPLPVTLTNVVFRLEGSGLQRPKILNVGDIGGNETVTLRQSFVPVRPGPRQLIASLDSPQLSQVHGVIQVDVAPAPGDGGFFSDAGGDSHLGETIPMASRGGA

With `transthyretin` the enrichment fold was 5.89 (SFN human; pull-down LC-MS/MS; baseline: blank).
For `TATCACAGAAAAAAAGAAAATATAATAAATTAGTATCAAGTCAATCGGTCC (dsDNA; 5'-amino-C6 primer)`, the Kd was 16.3 ± 1.3 nM (SPT15 full length assumed; array; double-stranded DNA, one strand shown; TBP alone).
`B1 (human IGBP1)` — result for “log2 fold change”: -0.0761 (PP6C (human); co-immunoprecipitation, IP-MS; CYB5R4 knockout cells; concentration not given; baseline: CYB5R4 knockout over parental).
For `phosphatidylinositol 3,4,5-trisphosphate`, “log2 fold change” read -0.377 (adenosine A2A receptor thermostabilised; equilibrium dialysis LC-MS; 5 µM, normalised z-score; baseline: no protein).
For `GSGAGPETLV`, the binding intensity was 0.257 (construct, MBP fusion, human SCRIB, PDZ 3-4; automated holdup; peptide, purified PDZ protein; concentration not given, unit not given; baseline: biotin control resin, higher = stronger binding).
`CTCAGGAATTCCTCTAAAGTAATGTGGAGCTCAGTTCAAGTCAATCGGTCC (dsDNA; 5'-amino-C6 primer)` has a Kd of 9.84 ± 0.31 nM (SPT15 full length assumed; array; double-stranded DNA, one strand shown; TBP alone).
`B2 (human septin-7)` — result for “log2 fold change”: -1.25 (PP6C (human); co-immunoprecipitation, IP-MS; CYB5R4 knockout cells; concentration not given; baseline: CYB5R4 knockout over parental).
For `hydroxysafflor yellow A`, the fold induction was 0.99 fold (Nrf2; Nrf2 induction, inducer; baseline: control).
`EKPIDSETKM`: “normalised SPR binding response” 0 normalised RU (construct, MBP fusion, human SCRIB, PDZ 3-4; surface plasmon resonance; peptide; concentration not given; higher = stronger binding).
For `VVVGACGVGK`, the remaining protein was 0.686 and 0.684 (HLA-A*11:01 peptide-β2M single-chain trimer; western blot, measured: pMHC-I; peptide, 293T cells; 48 h, unit not given, added: 100 µg/mL cycloheximide; baseline: time zero).
`PKRSFIESNV` has a binding intensity of 0.596 (construct, MBP fusion, human SCRIB, PDZ 3-4; automated holdup; peptide, crude extract; concentration not given, corrected by standard peak, unit not given; baseline: biotin control resin, higher = stronger binding).
`Relaxin` — result for “decrease in association”: 50% (RXFP1 signalosome; co-immunoprecipitation, measured: PDE4D3, PKA, β-arrestin-2; HEK293; 10 nM, 5 min).
For `GSGAGIESNV`, the binding intensity was 0.789 (construct, MBP fusion, human SCRIB, PDZ 3-4; automated holdup; peptide, crude extract; concentration not given, uncorrected, unit not given; baseline: biotin control resin, higher = stronger binding).
`B3 (human archaemetzincin-2)`: “log2 fold change” -1.78 (PP6C (human); co-immunoprecipitation, IP-MS; CYB5R4 knockout cells; concentration not given; baseline: CYB5R4 knockout over parental).
`GGWVEKETYY` gave a binding intensity of 0.0495 (construct, MBP fusion, human SCRIB, PDZ 3-4; automated holdup; peptide, purified PDZ protein; concentration not given, unit not given; baseline: biotin control resin, higher = stronger binding).
For `GEMVGQARILAQATSDLVNAIKDA`, “mean rupture force” read 61.5 pN (vinculin head domain Vd1; complex rupture, AFM single-molecule force spectroscopy; peptide; single traces, C-terminal pulling, 800 nm/s).
Under “normalised SPR binding response”, `GSGAGSETSV` is recorded as 53.2 normalised RU (construct, MBP fusion, human SCRIB, PDZ 3-4; surface plasmon resonance; peptide; concentration not given; higher = stronger binding).
`CUUUCUUCU (ssRNA)` has a Kd of 1280 nM (U2AF2; sequencing of bound RNA; RNA; motif only).
For `VVVGASGVGK`, the remaining protein was 0.518 and 0.535 and 0.558 (HLA-A*11:01 peptide-β2M single-chain trimer; western blot, measured: pMHC-I; peptide, 293T cells; 48 h, unit not given, added: 100 µg/mL cycloheximide; baseline: time zero).
`B4 (human TGM1)`: “log2 fold change” 0.91 (PP6C (human); co-immunoprecipitation, IP-MS; CYB5R4 knockout cells; concentration not given; baseline: CYB5R4 knockout over parental).
`VVVGAAGVGK` has a remaining protein of 0.549 and 0.55 and 0.575 (HLA-A*11:01 peptide-β2M single-chain trimer; western blot, measured: pMHC-I; peptide, 293T cells; 48 h, unit not given, added: 100 µg/mL cycloheximide; baseline: time zero).
`AGUUUGUGG (ssRNA)` gave a Kd of 500 nM (U2AF2; sequencing of bound RNA; RNA; motif only).
`human USP10`: “log2 fold change” -0.63 (PP6C (human); co-immunoprecipitation, IP-MS; CYB5R4 knockout cells; concentration not given; baseline: CYB5R4 knockout over parental).
